Published values from different studies.
Numbered parts are unrelated; each lists some results of a single study. Values joined by “and” are separate records of one study, mostly repeats; a detail may differ.
Chain of UniProt Q13546 (whole entry, looked up): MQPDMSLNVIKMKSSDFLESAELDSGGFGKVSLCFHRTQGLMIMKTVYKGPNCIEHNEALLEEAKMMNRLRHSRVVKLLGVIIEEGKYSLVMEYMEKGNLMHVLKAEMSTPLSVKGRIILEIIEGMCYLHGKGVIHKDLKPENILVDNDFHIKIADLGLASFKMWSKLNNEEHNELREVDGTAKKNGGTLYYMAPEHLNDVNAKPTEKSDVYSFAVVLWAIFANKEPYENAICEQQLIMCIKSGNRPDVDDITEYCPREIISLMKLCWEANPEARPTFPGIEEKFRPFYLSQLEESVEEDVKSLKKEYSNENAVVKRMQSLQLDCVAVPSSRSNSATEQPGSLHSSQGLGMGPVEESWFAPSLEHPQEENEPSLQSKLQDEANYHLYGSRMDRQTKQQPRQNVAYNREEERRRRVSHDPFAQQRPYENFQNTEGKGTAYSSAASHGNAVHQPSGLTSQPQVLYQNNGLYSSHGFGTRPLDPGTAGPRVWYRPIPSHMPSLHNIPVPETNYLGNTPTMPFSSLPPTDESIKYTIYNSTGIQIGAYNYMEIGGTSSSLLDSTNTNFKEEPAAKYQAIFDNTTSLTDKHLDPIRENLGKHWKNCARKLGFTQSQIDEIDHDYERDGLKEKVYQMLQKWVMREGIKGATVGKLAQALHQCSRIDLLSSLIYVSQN
Chain of UniProt P49336 (whole entry, looked up): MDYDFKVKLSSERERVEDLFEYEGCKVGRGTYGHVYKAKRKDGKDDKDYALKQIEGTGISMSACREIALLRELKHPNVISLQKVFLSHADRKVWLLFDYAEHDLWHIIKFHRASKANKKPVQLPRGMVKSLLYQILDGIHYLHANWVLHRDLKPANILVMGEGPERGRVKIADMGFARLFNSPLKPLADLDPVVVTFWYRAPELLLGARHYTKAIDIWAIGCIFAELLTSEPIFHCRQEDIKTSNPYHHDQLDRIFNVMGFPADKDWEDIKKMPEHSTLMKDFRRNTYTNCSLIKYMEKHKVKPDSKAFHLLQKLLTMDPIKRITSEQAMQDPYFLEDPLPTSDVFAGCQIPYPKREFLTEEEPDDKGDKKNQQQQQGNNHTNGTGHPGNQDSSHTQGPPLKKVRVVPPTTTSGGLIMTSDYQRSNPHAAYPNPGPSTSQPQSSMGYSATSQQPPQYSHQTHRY
Chain of UniProt Q9Y2U5 (whole entry, looked up): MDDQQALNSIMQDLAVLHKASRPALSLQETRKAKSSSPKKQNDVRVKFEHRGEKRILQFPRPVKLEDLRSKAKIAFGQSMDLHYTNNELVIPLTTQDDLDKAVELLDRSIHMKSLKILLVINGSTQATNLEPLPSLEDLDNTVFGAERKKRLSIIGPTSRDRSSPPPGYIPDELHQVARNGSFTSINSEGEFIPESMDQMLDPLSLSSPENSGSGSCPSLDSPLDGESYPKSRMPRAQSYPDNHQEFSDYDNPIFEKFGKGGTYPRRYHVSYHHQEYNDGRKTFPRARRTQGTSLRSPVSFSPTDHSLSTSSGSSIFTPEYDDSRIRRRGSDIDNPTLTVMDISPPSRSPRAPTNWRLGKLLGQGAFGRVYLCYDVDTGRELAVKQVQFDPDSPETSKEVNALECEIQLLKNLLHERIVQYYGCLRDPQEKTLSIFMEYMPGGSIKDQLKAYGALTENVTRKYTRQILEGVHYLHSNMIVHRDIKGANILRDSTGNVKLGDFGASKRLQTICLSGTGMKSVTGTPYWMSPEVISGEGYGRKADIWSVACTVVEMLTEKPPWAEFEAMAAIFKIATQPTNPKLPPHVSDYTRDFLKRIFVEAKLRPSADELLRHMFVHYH
Chain of UniProt P07949 (whole entry, unmodified, looked up): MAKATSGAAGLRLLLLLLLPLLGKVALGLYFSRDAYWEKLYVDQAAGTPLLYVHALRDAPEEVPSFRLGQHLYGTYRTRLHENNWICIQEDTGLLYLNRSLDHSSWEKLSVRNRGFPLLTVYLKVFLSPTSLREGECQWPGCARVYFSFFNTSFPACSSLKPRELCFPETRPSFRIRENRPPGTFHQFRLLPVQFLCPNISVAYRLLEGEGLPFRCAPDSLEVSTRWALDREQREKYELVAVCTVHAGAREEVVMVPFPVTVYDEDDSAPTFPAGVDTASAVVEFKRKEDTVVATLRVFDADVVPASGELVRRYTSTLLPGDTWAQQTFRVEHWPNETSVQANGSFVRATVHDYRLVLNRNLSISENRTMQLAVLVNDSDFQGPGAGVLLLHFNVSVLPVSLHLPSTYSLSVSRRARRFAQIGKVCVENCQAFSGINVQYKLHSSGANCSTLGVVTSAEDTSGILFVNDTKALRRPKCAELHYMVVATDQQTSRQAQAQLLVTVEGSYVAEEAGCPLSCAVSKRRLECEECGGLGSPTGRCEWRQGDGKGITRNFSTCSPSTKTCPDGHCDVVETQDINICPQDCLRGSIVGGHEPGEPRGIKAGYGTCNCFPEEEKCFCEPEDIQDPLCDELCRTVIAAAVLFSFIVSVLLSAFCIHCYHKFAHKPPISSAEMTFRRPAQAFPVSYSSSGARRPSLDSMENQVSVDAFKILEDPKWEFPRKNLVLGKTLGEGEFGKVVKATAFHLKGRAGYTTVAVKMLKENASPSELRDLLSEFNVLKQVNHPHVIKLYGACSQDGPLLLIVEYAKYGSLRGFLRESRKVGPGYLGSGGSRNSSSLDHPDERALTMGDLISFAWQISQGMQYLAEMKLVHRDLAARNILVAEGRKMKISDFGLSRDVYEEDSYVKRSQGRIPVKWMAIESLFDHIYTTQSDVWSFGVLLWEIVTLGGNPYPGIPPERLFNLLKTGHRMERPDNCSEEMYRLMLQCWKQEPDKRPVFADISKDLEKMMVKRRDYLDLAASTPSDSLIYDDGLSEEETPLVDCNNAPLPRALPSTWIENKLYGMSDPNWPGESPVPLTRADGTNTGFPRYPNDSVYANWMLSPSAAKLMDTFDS

Set 1
Target: Eukaryotic initiation factor 4A-III (Homo sapiens, UniProt P38919)
Chain of UniProt P38919 (whole entry, looked up): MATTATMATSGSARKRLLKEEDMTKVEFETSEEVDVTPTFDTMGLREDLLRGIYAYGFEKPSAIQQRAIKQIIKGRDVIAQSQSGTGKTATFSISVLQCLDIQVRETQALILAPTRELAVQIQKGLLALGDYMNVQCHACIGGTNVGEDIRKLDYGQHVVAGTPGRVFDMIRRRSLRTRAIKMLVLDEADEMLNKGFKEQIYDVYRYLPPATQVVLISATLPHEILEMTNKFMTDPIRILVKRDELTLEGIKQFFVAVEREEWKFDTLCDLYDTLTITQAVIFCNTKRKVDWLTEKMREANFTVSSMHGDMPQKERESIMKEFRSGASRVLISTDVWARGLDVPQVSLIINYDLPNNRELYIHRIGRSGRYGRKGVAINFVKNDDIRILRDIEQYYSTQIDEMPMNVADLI
Observed: RNA clamping
Technique: fluorescence polarization
Tested at: concentration not given
Setting: mean of two replicates
Together with: FAM-labelled poly r(AG)8 RNA
`COC(=O)[C@H]1[C@@H](O)[C@@]2(O)c3c(OC)cccc3N(C)[C@@]2(c2ccc(Br)cc2)[C@@H]1c1ccccc1` — result for “fluorescence polarization change”: 1.7 mP.
`COC(=O)[C@@H]1[C@@H](c2ccccc2)[C@]2(c3ccc(OC)cc3)Oc3cc(OC)cc(OC)c3[C@@]23NC(C(C)C)=N[C@@]13O` — result for “fluorescence polarization change”: 29.6 mP.
`COc1ccc([C@@]23Oc4cc(OC)cc(OC)c4[C@]2(O)c2nc(C)[nH]c(=O)c2[C@H]3c2ccccc2)cc1`: “fluorescence polarization change” 45.1 mP.
Under “fluorescence polarization change”, `C#CCCC1(CCOc2ccc([C@@H]3[C@@H](C(=O)N(C)OC)[C@@H](O)[C@@]4(O)c5c(OC)cc(OC)cc5O[C@@]34c3ccc(OC)cc3)cc2)N=N1` is recorded as -2.7 mP.

Set 2
SMILES: CC(C)n1cnc(-c2ccc(F)cc2)c1-c1ncc(C(=O)Nc2ccc(N3CCN(C)CC3)cc2)[nH]1
Technique: phase 2a trial
Host: idiopathic pulmonary fibrosis patients
For 60 mg once daily, grade 3: “patients with increased interferon-gamma” read 0%.
It gave 0% for “patients with increased interferon-gamma” (30 mg once daily, grade 3).
all dose arms pooled, grade 4 — “patients with increased interferon-gamma”: 0%.
It gave 0% for “patients with increased interferon-gamma” (all dose arms pooled, grade 2).
It gave 0% for “patients with increased interferon-gamma” (all dose arms pooled, grade 5).

Set 3
SMILES: O=C(N[C@H]1CCCCC/C=C\C2C[C@@]2(C(=O)O)NC(=O)[C@@H]2C[C@@H](Oc3ccncc3)CN2C1=O)OC1CCCC1 (stereo partly shown)
Technique: competition with immobilised ligand
Tested at: 1 µM
For Death-associated protein kinase 2 (DAPK2, Homo sapiens, UniProt Q9UIK4); binding: remaining binding read 100%.
It gave 85% for remaining binding (Tyrosine-protein kinase ABL1, phosphorylated (ABL1, Homo sapiens, UniProt P00519, Q252H); binding).
For Receptor-interacting serine/threonine-protein kinase 2 (RIPK2, Homo sapiens, UniProt O43353); binding: remaining binding read 100%.
For Serine/threonine-protein kinase PLK3 (PLK3, Homo sapiens, UniProt Q9H4B4); binding: remaining binding read 100%.
For MAP kinase-interacting serine/threonine-protein kinase 1 (MKNK1, Homo sapiens, UniProt Q9BUB5); binding: remaining binding read 79%.
The remaining binding was 97% (Mitogen-activated protein kinase kinase kinase 11 (MAP3K11, Homo sapiens, UniProt Q16584); binding).
It gave 100% for remaining binding (Serine/threonine-protein kinase MARK1 (MARK1, Homo sapiens, UniProt Q9P0L2); binding).
Tyrosine-protein kinase receptor Tie-1 (TIE1, Homo sapiens, UniProt P35590); cell-free assay — remaining binding: 100%.
The remaining binding was 100% (Proto-oncogene tyrosine-protein kinase Src (SRC, Homo sapiens, UniProt P12931); binding).
For Proto-oncogene tyrosine-protein kinase receptor Ret (RET, Homo sapiens, UniProt P07949, V804L); binding: remaining binding read 86%.
The remaining binding was 100% (High affinity nerve growth factor receptor (NTRK1, Homo sapiens, UniProt P04629); cell-free assay).
The remaining binding was 86% (Mitogen-activated protein kinase 8 (MAPK8, Homo sapiens, UniProt P45983); binding).
The remaining binding was 100% (Serine/threonine-protein kinase WNK3 (WNK3, Homo sapiens, UniProt Q9BYP7); binding).
Receptor-interacting serine/threonine-protein kinase 1 (RIPK1, Homo sapiens, UniProt Q13546); binding — remaining binding: 88%.
It gave 100% for remaining binding (Receptor-type tyrosine-protein kinase FLT3 (FLT3, Homo sapiens, UniProt P36888, ITD); binding).
It gave 66% for remaining binding (Cyclin-dependent kinase 8 (CDK8, Homo sapiens, UniProt P49336); binding).
The remaining binding was 89% (Myotonin-protein kinase (DMPK, Homo sapiens, UniProt Q09013); binding).
The remaining binding was 69% (Mitogen-activated protein kinase kinase kinase 2 (MAP3K2, Homo sapiens, UniProt Q9Y2U5); binding).
Serine/threonine-protein kinase SIK2 (SIK2, Homo sapiens, UniProt Q9H0K1); binding — remaining binding: 100%.
The remaining binding was 100% (Serine/threonine-protein kinase WNK2 (WNK2, Homo sapiens, UniProt Q9Y3S1); binding).
The remaining binding was 90% (Mitogen-activated protein kinase kinase kinase 20 (MAP3K20, Homo sapiens, UniProt Q9NYL2); binding).

Set 4
Cell line: mouse MPNST tumor cells
Technique: high-content nuclear imaging
Refers to: cell number
Tested at: 10 µM
Time: 12 h
Setting: mean of 2 replicates
Baseline: plate mean
Reading: higher = more cells
For `CCC(C)(C)c1ccc(CC(C)CN2C[C@@H](C)O[C@@H](C)C2)cc1` (stereo partly shown), the nuclei count was 1.02 z-score.
`COc1cc2nc(N3CCN(C(=O)COc4c(OC)cccc4C(C)C)CC3)nc(N)c2cc1OC` gave a nuclei count of -5.42 z-score.
The nuclei count of `CC(C)CN(C[C@@H](O)[C@H](Cc1ccccc1)NC(=O)O[C@H]1CCOC1)S(=O)(=O)c1ccc(N)cc1` is reported as 1.91 z-score and 0.492 z-score.
`C#CCN(C)CCCOc1ccc(Cl)cc1Cl` has a nuclei count of 1.52 z-score.
`CN1[C@@H]2CC[C@H]1C[C@@H](OC(=O)c1c[nH]c3ccccc13)C2` gave a nuclei count of 2.09 z-score.

Set 5
Structure (SMILES): Cc1ccc(NC(=O)c2ccnc(C(F)(F)F)c2)cc1-c1cc(OCCO)nc(N2CCOCC2)c1
Technique: competitive binding panel
Tested at: 1 µM
Baseline: vehicle
For Serine/threonine-protein kinase NLK (NLK, Homo sapiens, UniProt Q9UBE8): remaining binding read 100%.
For Calcium/calmodulin-dependent protein kinase type II subunit delta (CAMK2D, Homo sapiens, UniProt Q13557): remaining binding read 92%.
It gave 93% for remaining binding (Phosphatidylinositol 4-phosphate 5-kinase type-1 alpha (PIP5K1A, Homo sapiens, UniProt Q99755)).

Set 6
Target: Calcium/calmodulin-dependent protein kinase type II subunit alpha (CAMK2A, Homo sapiens, UniProt Q9UQM7)
Chain of UniProt Q9UQM7 (whole entry, looked up): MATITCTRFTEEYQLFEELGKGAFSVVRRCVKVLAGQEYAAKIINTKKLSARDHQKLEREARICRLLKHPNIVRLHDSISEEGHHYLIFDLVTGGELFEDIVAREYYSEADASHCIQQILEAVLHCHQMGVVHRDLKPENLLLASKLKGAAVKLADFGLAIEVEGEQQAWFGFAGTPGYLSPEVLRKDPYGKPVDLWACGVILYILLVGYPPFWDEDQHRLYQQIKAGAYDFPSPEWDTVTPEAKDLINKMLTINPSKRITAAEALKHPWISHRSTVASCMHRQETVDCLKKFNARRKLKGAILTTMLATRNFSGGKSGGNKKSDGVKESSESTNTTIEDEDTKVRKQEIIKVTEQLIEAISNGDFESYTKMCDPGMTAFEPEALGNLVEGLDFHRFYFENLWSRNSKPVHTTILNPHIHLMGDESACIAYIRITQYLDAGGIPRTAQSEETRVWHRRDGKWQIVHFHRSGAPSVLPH
Observed: enzyme activity
Mode: inhibitor
Tested at: 10 µM
For `C[C@H](CO[C@@H]1O[C@H](CO)[C@@H](O)[C@H](O)[C@H]1O)[C@H]1CC[C@@]2(CC[C@]3(C)[C@H](CC[C@@H]4[C@@]5(C)CC[C@H](O[C@@H]6O[C@H](CO)[C@@H](O)[C@H](O)[C@H]6O[C@@H]6OC[C@@H](O)[C@H](O)[C@H]6O)[C@@](C)(CO)[C@@H]5CC[C@]43C)[C@H]2O)CO1`, the inhibition was -2%.
`O=C(/C=C/c1ccc(O)c(O)c1)O[C@@H]1[C@H](O)C[C@@](O)(C(=O)O)C[C@H]1OC(=O)/C=C/c1ccc(O)c(O)c1` has an inhibition of -20%.
With `O=c1[nH]c(=O)c2nccnc2[nH]1` the inhibition was 15%.
`COc1cc(-c2c3c(c(O)c4cc5c(cc24)OCO5)COC3=O)cc(OC)c1OC` gave an inhibition of -1%.
`COc1cc(O)c2c(=O)c(O[C@@H]3O[C@H](CO[C@@H]4O[C@@H](C)[C@H](O)[C@@H](O)[C@H]4O)[C@@H](O)[C@H](O)[C@H]3O)c(-c3ccc(OC)c(O)c3)oc2c1` gave an inhibition of -3%.

A few entries again (set 2):
For 60 mg once daily, grade 3: “patients with increased interferon-gamma” read 0%.
It gave 0% for “patients with increased interferon-gamma” (30 mg once daily, grade 3).
all dose arms pooled, grade 4 — “patients with increased interferon-gamma”: 0%.
